Measurements from different studies.
Every numbered part comes from another study and shows a few of its results, in no order. Changes are numbered by the printed parent chain.

Set 1 — technique: RNA Bind-n-Seq; molecule type: RNA; medium: in vitro; concentration: 200 nM; notes: whole 134-nt RNA, ends assumed; with: 150 mM LiCl; baseline: input library; direction: higher = stronger binding; library: 7-deaza-guanosine replaces G
Target: Fragile X messenger ribonucleoprotein 1, C-terminal low-complexity region (Fmr1, Mus musculus, UniProt P35922)
Strand | log2 enrichment
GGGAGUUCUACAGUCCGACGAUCCCUGUGCUACACAUCGUAUGUACCGAAUCGGGAAAAAAAGGGUUUUUGGGUUUUUUUGGGAAAGUAUUAUGUUACGCCGUUCGGAUCUGCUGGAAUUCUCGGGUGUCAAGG | -2.54
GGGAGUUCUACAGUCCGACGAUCUGGCCCUGGUGGCAUGCGGGGAGGAAGAGGUGGCCUCAUGGAUCGUGGUGGUCCCGGUGGAAUGUUCAGAGGUGGCCAUGGUGGAGACAGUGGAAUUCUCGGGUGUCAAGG | -0.76
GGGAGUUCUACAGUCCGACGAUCCUCAAGUCCUGUGCUACACAUCGUAUGUACCGAAUCGGGGUGGGGUGGGUGGGAAAGUAUUAUGUUACGCCGUUCGGAUCUGCACUUCCAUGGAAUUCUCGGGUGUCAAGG | -1.09
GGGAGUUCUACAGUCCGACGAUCUGGCCCUGGUGGCAUGCGGGGAGGGAGAGGUGGCCUCAUGGAUCGUGGUGGUCCCGGUGGAAUGUUCAGAGGUGGCCGUGGUGGAGACAGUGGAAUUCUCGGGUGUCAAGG | 0.413
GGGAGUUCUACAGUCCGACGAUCCAAGUCCUGUGCUACACAUCGUAUGUACCGAAUCGGGUUUGGGUUUGGGAAAGGGAAAGUAUUAUGUUACGCCGUUCGGAUCUGCACUUCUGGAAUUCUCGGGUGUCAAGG | -1.22
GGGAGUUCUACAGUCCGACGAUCUGCUGGUGAGCUGCUGCCUGGCAGGCCACGUCUGCGUGUGGGACGCGCAGACCGGGGAUUGCCUAACGCGCAUUCCGCGCCCAGGGUAGGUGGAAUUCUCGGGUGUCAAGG | -2.12

Set 2 — target: CCNE1, cyclin fold, Cln2 fusion (human); technique: yeast growth competition, sequencing; medium: yeast; notes: weak parent motif; baseline: not given; direction: higher = stronger binding
Starting sequence: HASPIN docking peptide (human); ASLRSVLFGLMNS
Variant | normalised enrichment score
ASLRSVLFGLMNA [S13A] | 0.505
ASLRAVLFGLMNS [S5A] | 1.34
ASLRSVLFGLMAS [N12A] | 1.32
ASLASVLFGLMNS [R4A] | 0.0105
ASARSVLFGLMNS [L3A] | 0.459
ASLRSVLFGAMNS [L10A] | 1.04

Set 3 — technique: protein binding microarray; molecule type: double-stranded DNA, one strand shown; medium: in vitro; concentration: not given; baseline: not given; direction: higher = stronger binding
Target: Histone acetyltransferase KAT6A, winged helix 1, GST fusion (KAT6A, Homo sapiens, UniProt Q92794, residues 1-85)
Notes: 8-mer, flanks averaged, mean of 2 arrays, mostly near background
Target sequence (chain): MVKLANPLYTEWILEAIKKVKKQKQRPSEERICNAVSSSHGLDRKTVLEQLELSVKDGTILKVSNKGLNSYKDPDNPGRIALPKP
Strand | E-score
AGACGATG | -0.0207
ATCCAAGG | -0.117
CGAGCCCG | 0.332
CAGATCAA | -0.179
TCGACAGA | -0.115
ATGATTTA | -0.224
CTGGTAAA | -0.129
AATACCGC | 0.341
GCAAAGAA | -0.107

Other studies, line by line
Molecule | target | assay | test system | conditions | scale | quantity | result
PhoQ, residues 284 288 289 292 302 303 ASVMEA | PhoP, residues 12 14 15 18 19 YHFSH (Escherichia coli, UniProt P23836) | Sort-seq, item: YFP reporter | E. coli | PhoQ-PhoP variant library, with: 10 µM Mg2+ | baseline: high Mg2+ state, higher = stronger signaling | fold induction | 6.68

Repeated from above (set 2):
Variant | normalised enrichment score
ASLRSVLFGLMNA [S13A] | 0.505
ASLRAVLFGLMNS [S5A] | 1.34
ASLRSVLFGLMAS [N12A] | 1.32
ASLASVLFGLMNS [R4A] | 0.0105
